Measured values pooled from the literature.
Numbered parts are unrelated; each lists some results of a single study. Substitutions count along the parent as printed.

Set 1 — method: protein-binding microarray; molecule type: double-stranded DNA, one strand shown; sample: in vitro; concentration: 250 nM; setting: 60-bp whole probe; added: salmon DNA 0.4 mg/ml; reference: random background probes; direction: higher = stronger binding; all sequences stand within: GCCTAGCAC … GTCTTGATTCGCTTGACGCTGCTG
Target: Interferon regulatory factor 5, full length, phosphomimetic (IRF5, Homo sapiens, UniProt Q13568-2, residues 1-514, K96S/S451D/S453D/S456D/S462D)
Strand	log fluorescence
GACGATCTCAGTTTCAAGACGTGCTAG	0.852 z-score
CTTTTATGCTCTTTCTACATGTGCTAG	1.68 z-score
AAATGATTGGTTGAACATGAGTGCTAG	-0.0916 z-score
GACGGTTTCGGTATCCGGACGTGCTAG	9.65 z-score
GCACGTGACTGTTTCCCAATGTGCTAG	0.0956 z-score
TCAAGTCTTGTTTTACAACTGTGCTAG	0.204 z-score
GTCGGTATCCTTTTCCTGACGTGCTAG	0.726 z-score
GACGAACTGGACTTTCGGGACGTGCTA	4.7 z-score
GACGGTTTCCTTTCCCTGGCGTGCTAG	1.3 z-score
GACGGTTTCGGGTATCGGGCCGTGCTA	7.75 z-score
TGTAGCTGGAGAAGTAAAACGTGCTAG	-0.253 z-score
GTCGAACTGAGACTGGAGACGTGCTAG	-0.421 z-score
TGACGGCTCACTCCGTTGGAGTGCTAG	-0.646 z-score
GACGGTTTCCATCTCCTGACGTGCTAG	0.86 z-score
GACGGTTTCGGACTGGGCACGTGCTAG	3.74 z-score
GACGAACTGAGTATCGACACGTGCTAG	2.16 z-score
TTAGGACTGCTTATGCTTTAGTGCTAG	-0.405 z-score
TCAATTCTCCACTTGTGACTGTGCTAG	0.349 z-score
GAAGGACTGCTACTGCTGACGTGCTAG	-0.621 z-score
GTAGATATCGGGTATCGATTAGTGCTA	5.91 z-score
GACGGTATTGGTTTCGGGACGTGCTAG	5.41 z-score
TTAGATTTCGGGACTGGATGAGTGCTA	2.49 z-score
GACGATATCAGACTGGAGCCGTGCTAG	-0.122 z-score
TTAGGTTTCGACACTGGTTTAGTGCTA	6.26 z-score
TTAGGTTTCGGGACTGGGTTAGTGCTA	5.95 z-score

Set 2 — method: DHFR PCA, deep sequencing; sample: yeast; added: (+)-ABA 0.39 µM; reference: wild-type fitted maximum; direction: higher = stronger binding
Target: ABI1, truncated, D143A, DHFR fusion (Arabidopsis thaliana)
Setting: methotrexate growth selection, single substitutions
Starting sequence: PYL1, truncated, DHFR fusion (Arabidopsis thaliana); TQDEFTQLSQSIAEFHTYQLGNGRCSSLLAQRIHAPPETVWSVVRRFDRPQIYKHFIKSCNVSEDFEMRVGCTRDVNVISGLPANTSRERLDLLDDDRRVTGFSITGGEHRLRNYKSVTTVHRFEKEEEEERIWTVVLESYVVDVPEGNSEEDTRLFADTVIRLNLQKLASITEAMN; partner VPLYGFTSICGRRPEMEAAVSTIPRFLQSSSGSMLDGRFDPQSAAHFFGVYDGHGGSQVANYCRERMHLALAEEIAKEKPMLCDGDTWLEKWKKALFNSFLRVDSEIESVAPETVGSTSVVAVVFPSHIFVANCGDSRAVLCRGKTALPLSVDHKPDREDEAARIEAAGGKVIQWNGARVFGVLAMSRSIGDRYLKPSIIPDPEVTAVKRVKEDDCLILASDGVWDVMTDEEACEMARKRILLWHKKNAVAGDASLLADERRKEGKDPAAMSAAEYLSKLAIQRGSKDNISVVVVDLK
Change	relative binding score [%]
G81R	-4.93
L164Q	30
E131V	41.9
M176W	15.7
P83W	0.202
L93G	-7.31
D159R	-23.2
K116L	-3.44
R49S	30
H110S	37.2
P146H	0.0821
A170Q	26.2
H122S	-5.62
D144A	-9.13
L28W	-0.148
N114C	3.68
D159A	-15.3
D48W	-10.2
V44K	-10.7
F66P	-0.234
E127G	48
I172T	9.6
N77L	39.4
R132Q	63.9

Set 3 — method: RNA Bind-n-Seq; molecule type: RNA; sample: in vitro; concentration: 200 nM; setting: whole 134-nt RNA, ends assumed; added: 150 mM KCl; reference: input library; direction: higher = stronger binding
Target: Ras GTPase-activating protein-binding protein 1, full length (G3BP1, Homo sapiens, UniProt Q13283)
Chain of UniProt Q13283 (whole entry, looked up): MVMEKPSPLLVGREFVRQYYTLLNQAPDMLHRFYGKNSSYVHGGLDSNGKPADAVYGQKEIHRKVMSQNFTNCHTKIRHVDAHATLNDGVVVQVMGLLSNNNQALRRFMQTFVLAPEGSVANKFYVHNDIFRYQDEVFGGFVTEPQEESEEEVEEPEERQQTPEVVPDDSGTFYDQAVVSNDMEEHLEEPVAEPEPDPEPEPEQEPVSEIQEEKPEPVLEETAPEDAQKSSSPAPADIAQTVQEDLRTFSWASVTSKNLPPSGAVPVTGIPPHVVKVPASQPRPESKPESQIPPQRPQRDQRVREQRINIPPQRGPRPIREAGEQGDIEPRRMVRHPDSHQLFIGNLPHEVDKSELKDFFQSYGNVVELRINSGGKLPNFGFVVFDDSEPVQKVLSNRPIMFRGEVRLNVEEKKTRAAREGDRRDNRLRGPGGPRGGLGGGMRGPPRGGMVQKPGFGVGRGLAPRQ
All sequences stand within: GGGAGUUCUACAGUCCGACGAUC … UGGAAUUCUCGGGUGUCAAGG
Strand	log2 enrichment
UGAGAAACUUGCUCAAAUAUUGGCAGCUAGACAGUUAGAAAUUAAACAGAUUCCAUCUGAUGGCCACUGUAUGUAUAAAGCCAUUGAAGA	-1.09
CUCAAGUCCUGUGCUACACAUCGUAUGUACCGAAUCGGGUGGGAAAGGGUGGGAAAGUAUUAUGUUACGCCGUUCGGAUCUGCACUUCCA	1.01
GUCCUGUGCUACACAUCGUAUGUACCGAAUCGGGAAAAAAAGGGAAAAAAAGGGUGGGAAAGUAUUAUGUUACGCCGUUCGGAUCUGCAC	-0.072
CAAGUCCUGUGCUACACAUCGUAUGUACCGAAUCGGGUUUGGUUUGGGGUUUGGGGAAAGUAUUAUGUUACGCCGUUCGGAUCUGCACUU	0.0837
CUCAAGUCCUGUGCUACACAUCGUAUGUACCGAAUCGGUGGAAAGGUUUUUGGAAAGUAUUAUGUUACGCCGUUCGGAUCUGCACUUCCA	-0.482
AGUCCUGUGCUACACAUCGUAUGUACCGAAUCGGAAAAAAAGGUUUUUGGAAAAAGGAAAGUAUUAUGUUACGCCGUUCGGAUCUGCACU	-1.73
CCUGUGCUACACAUCGUAUGUACCGAAUCGGGGAAAAAGGGGUUUUUUUGGGGAAAGGGGAAAGUAUUAUGUUACGCCGUUCGGAUCUGC	0.402
CUGUGCUACACAUCGUAUGUACCGAAUCGGGGCCCCCCCGGGCCCCCCCGGCCCCCCCGGGGAAAGUAUUAUGUUACGCCGUUCGGAUCU	-1.24
AGUCCUGUGCUACACAUCGUAUGUACCGAAUCGGUUUUUGGGGUUUUUGGUUUUUGGAAAGUAUUAUGUUACGCCGUUCGGAUCUGCACU	-0.968
CCUGUGCUACACAUCGUAUGUACCGAAUCGGGGCCCCCCGGGGCCCCCCGGCCCCCCGGGAAAGUAUUAUGUUACGCCGUUCGGAUCUGC	-0.599
CCUCAAGUCCUGUGCUACACAUCGUAUGUACCGAAUCGGGAGGGUGGGAGGGAAAGUAUUAUGUUACGCCGUUCGGAUCUGCACUUCCAG	1.81
UGGGAGGUGGAUUUUGUUUAUUUUUUUAGCUCAUUUCCAGGGGUGGGAAUUUUUUUUUAAUAUGUGUCAUGAAUAAAGUUGUUUUUGGAA	0.562
UCAAGUCCUGUGCUACACAUCGUAUGUACCGAAUCGGCCCGGGCCCGGCCCGGGGAAAGUAUUAUGUUACGCCGUUCGGAUCUGCACUUC	-1.24
GUCCUGUGCUACACAUCGUAUGUACCGAAUCAAACCCCCCCAAAUUUUUAAAUUUAAAAAAGUAUUAUGUUACGCCGUUCGGAUCUGCAC	0.261

Set 4 — method: RNA Bind-n-Seq; molecule type: RNA; sample: in vitro; concentration: 100 nM; reference: input RNA pool; direction: higher = stronger binding
Target: RING finger protein unkempt homolog, zinc fingers 1-6, SBP tag (UNK, Homo sapiens, UniProt Q9C0B0, residues 30-357)
Chain of UniProt Q9C0B0 (30-357, looked up): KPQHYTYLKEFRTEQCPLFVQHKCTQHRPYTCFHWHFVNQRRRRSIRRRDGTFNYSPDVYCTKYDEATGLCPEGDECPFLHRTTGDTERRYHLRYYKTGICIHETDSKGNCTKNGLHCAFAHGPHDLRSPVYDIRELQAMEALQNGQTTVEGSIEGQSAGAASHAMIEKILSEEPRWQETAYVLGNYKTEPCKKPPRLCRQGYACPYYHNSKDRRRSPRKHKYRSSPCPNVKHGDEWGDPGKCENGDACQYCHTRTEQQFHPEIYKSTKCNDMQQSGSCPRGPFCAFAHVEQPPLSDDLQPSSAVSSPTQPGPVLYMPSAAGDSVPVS
Setting: RNA with constant flanks, vertebrate orthologous sites, ends assumed
All sequences stand within: GGGAGUUCUACAGUCCGACGAUC … CAACAGAGGAUUGAGCAUCA
Strand	bound/input enrichment [ratio]
UCUCUCAUUUUAUAUCUCCGAAAAAGAUUCUGGAUUUUUAAAACACUUGUUAGUUUUAGUUAGCUCUGCCCUCAUGAAGUAUUACUAUAAUUCACCACAAACAGAUACCUGUCUGAAUUA	0.575
UCUAUACAGUUUCAAAGAUACUUCCCUAUGGGAUGCUUUGGCACUAAAUCUAUUUAAUUGCAGUUACAUAUGUAUUGUUUAUAACUAGCAGUAUGCAUUCAAAGGGGGCUCACUUGGUAU	0.908
UAUAAUUAUGAAAAUCUAAAGGAUUUUUACUGUUUAAUUUCCCCCAGCAUAUAUAUUAAGACCUCUUUUUUUUCCAGGCAGAUCAUUCAGAGUGUGCGAGUGUGUGUGCACAUGUUACAA	0.822
AAAUUUAUUUCAUGCCCUGGACUCCCUAUCGUACUGAUACUUUAAUAGAAUAUGCUUCCUUAGAAGAUUUCCAAAAUAGUCGCCAAACGACGACAUACAAACUUCCAAAUCGAGUAGAUG	1.34
GGAGAUACUGAAUAGUAUUAACCAUUUUCGUCUUCCUUCACCUUUUACCCUUCUACCUCUUAGUCUACUUUUUUAAAUUUCAGACUUCAUUGCUCUUUGAAUUGAUAUUUCAGAUUUUCA	1.02
UUGGGAUCAGCUCGCCAAAUAGGAAUAGUAGUAAAAAAAAUAAGCAAAAUGAUAUUUGUAUAGAAAAAACAGAAGUUAAAUCAUGUAAAGUAAAUGUUGCCAAUAUUCCAGGCCCCAAAG	1.06
CGAGAUUUUGUAAAAGAACAAGGCUUUGGGGAAAUGAGUUUUUUGCGUUUUGUAUUUAAAUAGGAUACUUUUAUAUGAUGGGUGCUUUUGAGUGUGAGUGCAGCCGGGCCUCCAUUUGGG	0.799
AAAAUACUGGAUGCAGUGUAGAAAUUAUCGAAGGCAGUGACUUCAGCUUUAUAUAUAUUGUUAGUUUUAAAGUCAUCUACUUUUAUUUAAACUUCUAAAUAGCUAUUUCUCUUUGUAAAG	0.65
UUACAGUCAUUGAUGGACUCUAUUUUUUUAUUAUUACUUGGACCUUGGUCGUUUUUAUACUAGCAAAAUGUCUUGUUUUAAUUUGUGUUUUUUUCGGGGGGAGGGAGUAAACUUGCUGAU	2.62
GCACAUGCCGCUAUCACCAAAAGCAAACUACCACUUCUCAAAUUUCAUUCAGAGCUGUUUUCGUGUUUCCUAUUCCCCACCCUUUCCACUACUUUCAAUGAUCAAACAUCCUAAGUUCUC	1.4
GCGGCUGGUGGGGGAAUAUCCCCUCCUCUGGCCUUGUCUCCCCUUCCUGCCACCAGCCCCUCAUUAUUUUUUUUUUAACCACCAUGUGAUUAAGGUCGGCGCUGCCUCCCCUGACCCGCU	1.41
